Assay results collected from several papers.
Each numbered part is a random draw from the data of one study; scales do not carry over between parts. Positions count from the first letter of the parent shown.

Sample 1
Target: RNA binding protein fox-1 homolog 2, RRM domain, GST-SBP tag (RBFOX2, Homo sapiens, UniProt O43251-10, residues 100-194)
Method: RNA Bind-n-Seq
Molecule type: RNA
Sample: in vitro
Tested at: 365 nM
Setting: natural RNA segment, single round, ends assumed
Baseline: no-protein control
Reading: higher = stronger binding
Construct (chain): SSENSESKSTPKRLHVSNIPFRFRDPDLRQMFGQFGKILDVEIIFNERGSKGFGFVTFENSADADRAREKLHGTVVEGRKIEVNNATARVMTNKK
| Sequence | RBNS enrichment (R) |
| --- | --- |
| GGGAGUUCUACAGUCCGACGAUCAACGAUAACAUUUUAAGGACUAAUAUUGCUGAUACUUGAAUAAUCAAUCUCUACUAGGUUAUAAGUAGUAUACACAGAUUUACCCUGCCCUUGAACUUGAAGGACAUUAAUGGAAUUCUCGGGUGCCAA | 0.294 |
| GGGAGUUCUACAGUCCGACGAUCACAUUUCUUGGAGGUGGCUGUGUGGGGAACGGCUUGCUUACAGGUACAGCAGGUACAACCGCCUGACAGUCUCACAGGUUGUAUCCCACUCCUUACCUGUGGCCCCACCCUGGAAUUCUCGGGUGCCAA | 0.372 |
| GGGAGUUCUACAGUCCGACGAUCGUUUUGUUUAGAGCAGUUAACAUCUGAAGUGUCUAAUGCAUUAACUUUUGUAAGGUACUGAAUACUUAAUAUGUGGGAAACCCUUUUGCGUGGUCCUUAGGCUUACAAUGUGGAAUUCUCGGGUGCCAA | 0.308 |
| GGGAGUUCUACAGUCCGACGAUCGAAGUGUAGAUCAUUGUAUUCAGAGAUUGUAAAUGAAAAAAAUAUAGAAACUAUUUAGUUUUGGUAGAUUUUUUUUCUGACAAUGUGACCAGACUGAAUUUCCUCAUAAAUGGAAUUCUCGGGUGCCAA | 0.513 |
| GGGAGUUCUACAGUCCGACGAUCUUGUCAUUGUUCCAAAUUUCCAGAAUAGAAUAUAGGACCAGUUUAGAUCCUGUAGUAAACAUGUCCCAUCUAUGACUGCCUUGAUUAUAGAGGCAAGGGGUUACUGUGUGUGGAAUUCUCGGGUGCCAA | 0.477 |
| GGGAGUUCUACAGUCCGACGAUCCACAGGUCCCAGCAACUGAUCCUCAGUGGAUGGGUCUGCAGCCAAAGCCUUAAUGGGCUCUCUUUUGAAGGGGAAAGAAAGAAUUUCAAGCUUAUGAUAUCCAACAUUAUUGGAAUUCUCGGGUGCCAA | 0.278 |
| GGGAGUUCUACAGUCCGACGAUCGACACCCCUGUACCUCUUCUCCAGGCCCAGCCUGCCACUGGGGAUGGGAAGAGGGGUUCUGGACUGUGCCUGCAUUAACUCCACGCUGGGGAGGGCGCGCUGCUGGUCCAUGGAAUUCUCGGGUGCCAA | 0.806 |
| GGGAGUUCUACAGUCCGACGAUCCAUUAGUGGUAACUGGUUUAAAAAACAAAGACUGUAAGCCUGUGUGUGCCACUGUUUGCUUCAACAGUAUAUCCUAAUAAGCCUCACCUAUUUAAUCCAAUGAGUUUUAAUGGAAUUCUCGGGUGCCAA | 0.491 |
| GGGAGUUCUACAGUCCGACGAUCCGCCUAAAGUGCAGCAGCAGCUCCUCUCAAGCUCACUCUCUAGGUCUCCAGGGUAGGAGUGUUUUUCUAGCAAGAAUCUUAGUCAGGAGUAAGCUCUGUGCGAGAGAUCUUGGAAUUCUCGGGUGCCAA | 0.344 |
| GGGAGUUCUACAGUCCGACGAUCAUAACCAUUUCCUUCUUGUCACUGAAAUAUAUGGACCUGAAUUUGUAUCCUGACUGAUUCAACCCAGCCGAGCAUAAAUUGACUUGAGCGCCUUACCUUUGAUGUCUGAAUGGAAUUCUCGGGUGCCAA | 0.593 |
| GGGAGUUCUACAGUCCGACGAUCUAAAUGCAAUUAUUUUUCUGCCAAUGGUAUAGCCUAUGCCUAUGCUUGAGAAGUGUAGGUCUACUGAAGAACCAUUACAAAUGGACGUCAGAGGUGUGCUGUACUUUUGAUGGAAUUCUCGGGUGCCAA | 0.92 |
| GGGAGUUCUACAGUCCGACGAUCCAGCCCGGAGCUGGGUGCUGGGGAAGGCGGGGCGCGUAGCCUCCCGCCGCCCUGCGGUUGGGCCGGUGGAGGCCCAGGCGUUGCUAGGAUUGCAUCAGUUUUCCUGUUUGUGGAAUUCUCGGGUGCCAA | 0.42 |

Sample 2
Target: Histone acetyltransferase KAT6A, both winged helices, GST fusion (KAT6A, Homo sapiens, UniProt Q92794, residues 1-181)
Method: protein binding microarray
Molecule type: double-stranded DNA, one strand shown
Sample: in vitro
Tested at: not given
Setting: 8-mer, flanks averaged, mean of 2 arrays, mostly near background
Baseline: not given
Reading: higher = stronger binding
Target sequence (chain): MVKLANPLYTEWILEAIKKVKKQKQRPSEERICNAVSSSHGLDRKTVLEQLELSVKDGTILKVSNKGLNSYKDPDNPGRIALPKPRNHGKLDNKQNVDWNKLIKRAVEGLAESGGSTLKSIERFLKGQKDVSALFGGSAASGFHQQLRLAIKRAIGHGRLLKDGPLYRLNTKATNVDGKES
| Sequence | E-score |
| --- | --- |
| TCTTTCCA | -0.107 |
| ACTCAGAC | -0.114 |
| AGGTTATC | -0.171 |
| CAGCTGGG | -0.163 |
| CTGACAAC | -0.0229 |
| AGGACAAA | -0.0729 |
| GGGGGGAA | -0.209 |
| TGACGGCA | 0.253 |
| GCACGGAC | 0.272 |
| ACATCCAC | -0.171 |
| CAAGATCG | 0.151 |
| CCGAGTGC | 0.201 |
| CCGCCCAG | 0.0665 |
| CAATGGAA | 0.0308 |
| ATCCACCC | -0.0785 |
| ACCAGGAA | -0.116 |
| TCAATGCA | 0.00713 |
| GGCCGCAC | 0.167 |
| ATTCCGTG | 0.244 |
| CTTGATTC | -0.0407 |
| CTTTGCAC | -0.216 |
| TACGTGAA | 0.0138 |
| GGGTATTA | 0.0299 |
| GACCCGCC | 0.208 |
| CACGCGCG | 0.381 |

Sample 3
Target: ABI1, truncated, D143A, DHFR fusion (Arabidopsis thaliana)
Method: DHFR PCA, deep sequencing
Sample: yeast
Setting: methotrexate growth selection, single substitutions
Added: (+)-ABA 1.4 µM
Baseline: wild-type fitted maximum
Reading: higher = stronger binding
Starting sequence: PYL1, truncated, DHFR fusion (Arabidopsis thaliana); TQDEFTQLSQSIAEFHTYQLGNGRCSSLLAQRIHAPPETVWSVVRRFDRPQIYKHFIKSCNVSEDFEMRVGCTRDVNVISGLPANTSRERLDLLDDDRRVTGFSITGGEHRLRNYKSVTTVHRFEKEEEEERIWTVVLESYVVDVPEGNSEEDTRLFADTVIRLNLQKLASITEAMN; partner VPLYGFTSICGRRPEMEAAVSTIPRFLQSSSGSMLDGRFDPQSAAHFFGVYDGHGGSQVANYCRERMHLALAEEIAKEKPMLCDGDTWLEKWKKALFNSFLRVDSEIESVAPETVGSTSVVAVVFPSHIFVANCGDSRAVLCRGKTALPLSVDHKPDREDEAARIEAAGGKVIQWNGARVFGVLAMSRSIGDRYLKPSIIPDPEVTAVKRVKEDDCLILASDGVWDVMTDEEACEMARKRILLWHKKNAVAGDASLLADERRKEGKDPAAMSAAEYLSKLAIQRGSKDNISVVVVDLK
| Change | relative binding score |
| --- | --- |
| R32G | 1.8% |
| S63W | -10.1% |
| R123V | 13.8% |
| N149P | 13.6% |
| L20G | 58.3% |
| Y141I | 2.5% |
| L8H | 6.81% |
| L166H | 21.6% |
| D48H | -10.5% |
| F66H | 18% |
| S59K | 26.2% |
| V118H | 34.9% |
| F15Q | 9.68% |
| V161E | 2.99% |
| P50Y | -0.53% |
| E147H | 47.9% |
| H34S | 47.3% |
| G21Y | 7.2% |
| G107E | 12.5% |

Sample 4
Target: CCNB3, cyclin fold, Cln2 fusion (human)
Method: yeast growth competition, sequencing
Sample: yeast
Setting: weak parent motif
Baseline: not given
Reading: higher = stronger binding
Starting sequence: INSM1 docking peptide (human); PKAIRKLHFEDEV; partner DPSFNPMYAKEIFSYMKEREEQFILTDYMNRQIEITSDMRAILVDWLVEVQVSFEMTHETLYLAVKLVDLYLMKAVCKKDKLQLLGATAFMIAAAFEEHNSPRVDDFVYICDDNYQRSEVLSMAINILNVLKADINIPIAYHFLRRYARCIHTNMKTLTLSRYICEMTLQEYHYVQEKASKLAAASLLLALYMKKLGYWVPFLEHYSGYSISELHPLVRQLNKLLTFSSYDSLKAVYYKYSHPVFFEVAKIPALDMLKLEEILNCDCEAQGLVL
| Change | normalised enrichment score |
| --- | --- |
| L7V | 0.167 |
| A3T | 0.246 |
| F9W | 0.528 |
| E12C | 0.559 |
| F9R | 0.0716 |
| L7Q | -0.181 |
| H8R | -0.257 |
| H8I | 0.572 |
| E12W | 0.266 |
| H8D | 0.135 |
| E10K | -0.0283 |
| F9A | -0.491 |
| L7I | 0.434 |
| H8W | 0.00561 |
| H8C | 1.02 |
| A3D | -0.109 |
| K6Y | 0.337 |
| H8E | 0.113 |
| L7G | 0.00641 |
| H8V | 0.676 |
| D11K | 0.358 |
| D11C | 0.571 |

Single results of other studies
| Molecule | target | assay | test system | setting | how to read | endpoint | value |
| --- | --- | --- | --- | --- | --- | --- | --- |
| PhoQ, residues 284 288 289 292 302 303 TASMAF | PhoP, residues 12 14 15 18 19 NHFRA (Escherichia coli, UniProt P23836) | Sort-seq, measured: YFP reporter | E. coli | PhoQ-PhoP variant library, added: 10 µM Mg2+ | baseline: high Mg2+ state, higher = stronger signaling | fold induction | 2.17 |

Excerpt of the above (sample 4):
| Change | normalised enrichment score |
| --- | --- |
| E12C | 0.559 |
| F9R | 0.0716 |
| L7Q | -0.181 |
| H8R | -0.257 |
| H8I | 0.572 |
| E12W | 0.266 |
